Measurements from different studies.
Each line is one published result; not all experiments were run side by side. ± gives the spread as reported.

CSCc1ccccn1.F[P-](F)(F)(F)(F)F.F[P-](F)(F)(F)(F)F.[Ru+2].c1ccc(-c2ccccn2)nc1.c1ccc(-c2ccnc3c2ccc2c(-c4ccccc4)ccnc23)cc1
EC50 (A549 monolayer; cell growth, SRB; dark): 59000 nM

C/C(=N\NC(=O)c1cccc(S(=O)(=O)N2CCOCC2)c1)c1cc(Cl)ccc1O
EC50 (NCI-H510A; cell growth or viability, resazurin; 10 days): 56.2 nM

C(=C/c1ccccc1)/c1ccccc1
EC50 (U-937; apoptosis, flow cytometry, item: caspase-3 activity; 24 h, 50% apoptosis induction): 8000 nM

[Ru+2].c1ccc(-c2ccc3c(n2)c2ncccc2c2nc4cc5ccccc5cc4nc32)nc1.c1ccc(-c2ccc3c(n2)c2ncccc2c2nc4cc5ccccc5cc4nc32)nc1
EC50 (MCF-10A; cell growth or viability, MTT; dark): > 25000 nM

CC(C)(C)OC(=O)C(NCc1ccc(CCC(=O)NO)nc1)C1CCCCC1 (stereo not shown)
EC50 (monocytes; global acetylation, flow cytometry; human whole blood; 4 h): 6310 nM

Cc1ccc2c(n1)c1nc(C)ccc1c1nc3cc4ccccc4cc3nc21.[Ru+2].c1ccc(-c2cccc(-c3ccccn3)n2)nc1.c1ccncc1
EC50 (MCF-10A; cell viability, MTT; 1 h, blue light 56 J/cm2): 7000 ± 2100 nM

COc1ccc([C@@H]2C3CCCN3[C@@]3(c4ccccc4-c4nc5ccccc5nc43)[C@H]2C(=O)c2nc3ccccc3[nH]2)cc1 (stereo partly shown)
EC50 (WI-38; cytotoxicity, MTT; 72 h): 450 ± 16 nM

CCCCCCCCCCCCCCCC(=O)N[C@@H](CCC(=O)NCCCC[C@H](NC(=O)[C@H](CC(=O)O)NC(=O)[C@H](CO)NC(=O)[C@@H](NC(=O)[C@H](Cc1ccccc1)NC(=O)[C@@H](NC(=O)CNC(=O)[C@H](CCC(N)=O)NC(=O)[C@H](CO)NC(=O)[C@@H](N)Cc1c[nH]cn1)[C@@H](C)O)[C@@H](C)O)C(=O)N[C@@H](CO)C(=O)N[C@@H](CCC(=O)O)C(=O)N[C@@H](Cc1ccc(O)cc1)C(=O)N[C@@H](CC(C)C)C(=O)N[C@@H](CC(=O)O)C(=O)N[C@@H](CO)C(=O)N[C@@H](CCC(=O)O)C(=O)N[C@@H](CCCNC(=N)N)C(=O)N[C@@H](C)C(=O)N[C@@H](CCCNC(=N)N)C(=O)N[C@@H](CC(=O)O)C(=O)N[C@@H](Cc1ccccc1)C(=O)N[C@H](C(=O)N[C@@H](C)C(=O)N[C@@H](Cc1c[nH]c2ccccc12)C(=O)N[C@@H](CC(C)C)C(=O)N[C@@H](CCC(=O)O)C(=O)N[C@@H](C)C(=O)NCC(=O)NCC(=O)O)C(C)C)C(=O)O
EC50 (primary rat hepatocytes; hepatic glucose output; 120 min, 37 °C, added: 0.1% BSA): 0.083 ± 0.028 nM

FC(F)(F)c1ccnc(-c2cc(C(F)(F)F)ccn2)c1.FC(F)(F)c1ccnc(-c2cc(C(F)(F)F)ccn2)c1.[Cl-].[Cl-].[Ru+2].c1csc(-c2ccc(-c3ccc(-c4ccc(-c5nc6c7cccnc7c7ncccc7c6[nH]5)s4)s3)s2)c1
EC50 (SK-MEL-28; cell viability; normoxia, added: red light 633 nm, 100 J/cm2): 2740 nM

CN(Cc1ccc(/C=C/C(=O)NO)cc1)CC12CC3CC(CC(C3)C1)C2
EC50 (PNC; histone H3K9 acetylation, item: H3K9ac): 100 nM

O=C1NCCN1C[C@H](O)Cn1c2ccc(F)cc2c2cc(F)ccc21
EC50 (glioblastoma stem cells; viability): ≥ 10000 nM

CC(=O)N[C@@H](CC[S+](C)[Ru-4]123([S+](C)CC[C@H](NC(C)=O)C(=O)O)[n+]4ccc5ccccc5c4Nc4cccc([n+]41)-c1cccc([n+]12)Nc1c2ccccc2cc[n+]13)C(=O)[O-].F[P-](F)(F)(F)(F)F (stereo partly shown)
EC50 (A-431 and A549; phototoxicity; green light): < 1000 nM

CC(C)Cn1c(=O)n(C)c(=O)c2c1nc(Cc1cccc3ccccc13)c(=O)n2CCCO
EC50 (Raji; cell growth or viability, MTT; 96 h): 1550 nM

A few entries again:
CN(Cc1ccc(/C=C/C(=O)NO)cc1)CC12CC3CC(CC(C3)C1)C2
EC50 (PNC; histone H3K9 acetylation, item: H3K9ac): 100 nM

Cc1ccc2c(n1)c1nc(C)ccc1c1nc3cc4ccccc4cc3nc21.[Ru+2].c1ccc(-c2cccc(-c3ccccn3)n2)nc1.c1ccncc1
EC50 (MCF-10A; cell viability, MTT; 1 h, blue light 56 J/cm2): 7000 ± 2100 nM
